{"data": "Published values pooled from the literature", "note": "Every numbered part comes from another study and shows a few of its results, in no order. Values joined by “and” are separate records of one study, mostly repeats; a detail may differ. ± marks the error that the study gave."}
{"data": "Series 1", "SMILES": "Cc1ccc(O)c(C)c1-c1cnc2[nH]c(-c3cnc(N4CCC5(CC4)CC(N4CCN(c6ccc(NC7CCC(=O)NC7=O)cc6F)CC4)CO5)nc3)cc2c1C#N (stereo not drawn)", "PKMYT1": "Membrane-associated tyrosine- and threonine-specific cdc2-inhibitory kinase (PKMYT1, Homo sapiens, UniProt Q99640)", "chain of UniProt Q99640 (whole entry, looked up)": "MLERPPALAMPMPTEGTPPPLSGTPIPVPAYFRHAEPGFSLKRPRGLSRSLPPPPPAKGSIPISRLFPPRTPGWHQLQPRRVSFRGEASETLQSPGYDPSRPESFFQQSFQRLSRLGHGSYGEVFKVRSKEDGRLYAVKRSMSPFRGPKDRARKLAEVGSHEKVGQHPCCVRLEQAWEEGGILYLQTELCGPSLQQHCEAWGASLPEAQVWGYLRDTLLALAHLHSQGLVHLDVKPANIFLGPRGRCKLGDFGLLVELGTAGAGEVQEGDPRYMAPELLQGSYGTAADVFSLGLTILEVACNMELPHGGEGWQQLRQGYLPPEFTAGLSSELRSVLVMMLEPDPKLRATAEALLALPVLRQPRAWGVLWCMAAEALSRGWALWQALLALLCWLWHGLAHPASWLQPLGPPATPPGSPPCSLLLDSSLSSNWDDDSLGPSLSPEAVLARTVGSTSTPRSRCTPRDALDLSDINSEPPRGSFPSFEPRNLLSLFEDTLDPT"}
{"target or system": "HCC1599", "test": "refers to: CDK1 phospho-Thr14", "setting": "111.11 nM", "inhibition [%]": 40.6}
{"target or system": "MDA-MB-157", "test": "refers to: CDK1 phospho-Thr14", "setting": "333.33 nM", "inhibition [%]": 57.2}
{"target or system": "PKMYT1", "setting": "0.1111 µM", "inhibition [%]": 98.6}
{"target or system": "HCC1599", "test": "refers to: CDK1 phospho-Thr14", "setting": "0.05 nM", "inhibition [%]": -10.1}
{"target or system": "HuCCT-1", "test": "refers to: CDK1 phospho-Thr14", "setting": "37.04 nM", "inhibition [%]": 54.3}
{"target or system": "PKMYT1", "test": "cell-free assay, inhibitor, TR-FRET", "setting": "37.04 nM", "inhibition [%]": 93.3}
{"target or system": "PKMYT1", "test": "cell-free assay, inhibitor, TR-FRET", "setting": "0.3333 µM", "inhibition [%]": 99.7}
{"target or system": "HCC1599", "test": "refers to: CDK1 phospho-Thr14", "setting": "1.37 nM", "inhibition [%]": -8.2}
{"target or system": "PKMYT1", "test": "cell-free assay, inhibitor, TR-FRET", "setting": "460 pM", "inhibition [%]": 8.42}
{"target or system": "PKMYT1", "test": "cell-free assay, inhibitor, TR-FRET", "setting": "1 µM", "inhibition [%]": 100}
{"target or system": "PKMYT1", "test": "cell-free assay, inhibitor, TR-FRET", "setting": "0.1111 µM", "inhibition [%]": 98.8}
{"target or system": "HuCCT-1", "test": "refers to: CDK1 phospho-Thr14", "setting": "1000 nM", "inhibition [%]": 95}
{"target or system": "HuCCT-1", "test": "refers to: CDK1 phospho-Thr14", "setting": "0.46 nM", "inhibition [%]": 16.5}
{"target or system": "HCC1599", "test": "refers to: CDK1 phospho-Thr14", "setting": "0.46 nM", "inhibition [%]": -12.3}
{"target or system": "PKMYT1", "test": "cell-free assay, inhibitor, TR-FRET", "setting": "12.35 nM", "inhibition [%]": 78.7}
{"data": "Series 2", "SMILES": "Cc1ncsc1-c1ccc(C(CO)NC(=O)C2CC(O)CN2C(=O)C(C(C)C)n2cc(-c3ccc(COc4c(-c5c(C)c(F)cc6[nH]ncc56)c(C5CC5)cc5c(N6CC7CC6CN7)nc(OC6CCOCC6)nc45)cc3)nn2)cc1 (stereo not drawn)"}
{"system": "mouse, A-375 xenograft", "setting": "sc, 30 mg/kg once daily, day 6", "tumour volume": "204 mm3 and 371 mm3 and 298 mm3 and 331 mm3 and 265 mm3"}
{"system": "mouse, PK-59 xenograft", "setting": "3 mg/kg, day 0", "tumour volume": "231 mm3 and 274 mm3 and 311 mm3 and 310 mm3 and 322 mm3"}
{"system": "mouse, lung LXFA sample A PDX", "setting": "30 mg/kg twice weekly, day 13", "tumour volume": "62.8 mm3 and 128 mm3 and 110 mm3 and 55 mm3 and 101 mm3 and 8.1 mm3 and 30.5 mm3 and 89.6 mm3"}
{"system": "mouse, PK-59 xenograft", "setting": "30 mg/kg, day 14", "tumour volume": "117 mm3 and 196 mm3 and 123 mm3 and 176 mm3 and 118 mm3"}
{"system": "PK-1 xenograft, mouse", "setting": "30 mg/kg once weekly, day 7", "tumour volume": "183 mm3 and 161 mm3 and 190 mm3 and 155 mm3 and 200 mm3"}
{"system": "mouse, lung LXFA sample B PDX", "setting": "30 mg/kg twice weekly, day 4", "tumour volume": "156 mm3 and 205 mm3 and 76.1 mm3 and 75.4 mm3 and 224 mm3 and 91.4 mm3 and 59.7 mm3 and 159 mm3"}
{"system": "HPAC xenograft, mouse", "setting": "30 mg/kg once weekly, day 11", "tumour volume": "322 mm3 and 434 mm3 and 312 mm3 and 337 mm3 and 292 mm3"}
{"system": "GP2d xenograft, mouse", "setting": "30 mg/kg once weekly, day 14", "tumour volume": "195 mm3 and 246 mm3 and 227 mm3 and 180 mm3 and 215 mm3"}
{"system": "mouse, lung LXFA sample B PDX", "setting": "30 mg/kg twice weekly, day 18", "tumour volume": "52.3 mm3 and 225 mm3 and 59.7 mm3 and 42.7 mm3 and 18.1 mm3 and 137 mm3 and 107 mm3 and 49 mm3"}
{"system": "mouse, lung LXFA sample A PDX", "setting": "10 mg/kg twice weekly, day 9", "tumour volume": "177 mm3 and 127 mm3 and 348 mm3 and 84.9 mm3 and 245 mm3 and 69.8 mm3 and 64.2 mm3 and 131 mm3"}
{"data": "Series 3", "Compound": "CCN1/C(=C/C=C2\\CCCC(/C=C/C3=[N+](CC)c4ccccc4C3(C)C)=C2NCCCCCCCCN2CCC(Nc3nc4ccccc4n3Cc3ccc(F)cc3)CC2)C(C)(C)c2ccccc21", "cell line": "U-87 MG", "tested at": "concentration not given", "relative to": "DMSO"}
{"test": "refers to: CSNK2A2 mRNA", "log2 fold change": 0.984}
{"test": "refers to: NFKB1 mRNA", "log2 fold change": 0.965}
{"test": "refers to: ZKSCAN3 mRNA", "log2 fold change": -0.929}
{"test": "refers to: ADCY7 mRNA", "log2 fold change": 1.51}
{"test": "refers to: TBX3 mRNA", "log2 fold change": 1.89}
{"test": "refers to: SLC7A7 mRNA", "log2 fold change": 1.8}
{"test": "refers to: KIAA0895L mRNA", "log2 fold change": -0.904}
{"test": "refers to: AMPD3 mRNA", "log2 fold change": 2.54}
{"test": "refers to: LGALS8 mRNA", "log2 fold change": 1.3}
{"test": "refers to: ZFAND3 mRNA", "log2 fold change": 1.02}
{"test": "refers to: GNG2 mRNA", "log2 fold change": -1.83}
{"test": "refers to: BAG1 mRNA", "log2 fold change": 0.858}
{"test": "refers to: PER3 mRNA", "log2 fold change": -1.22}
{"test": "refers to: TIPARP mRNA", "log2 fold change": 1.94}
{"test": "refers to: CRACR2B mRNA", "log2 fold change": -1.87}
{"test": "refers to: P2RX6 mRNA", "log2 fold change": -2.72}
{"data": "Single results of other studies"}
{"SMILES": "Cn1ncc2c1N(CCCCNC/C=C/C#N)c1cc(Cl)ccc1CC2", "target or system": "NCI-H292", "test": "cell growth or viability, ATP luminescence", "measurement": "IC50", "result": "2550 nM"}
{"SMILES": "CCOC(=O)/C=C/CNCCCCN1c2cc(Cl)ccc2CCc2cnn(C)c21.O=C(O)/C=C\\C(=O)O", "system": "mouse plasma", "setting": "5 µM", "measurement": "half-life", "result": "6 ± 0.1 min"}
{"SMILES": "CCONC(=O)/C=C/CNCCCCN1c2cc(Cl)ccc2CCc2cnn(C)c21.O=C(O)/C=C\\C(=O)O", "system": "human plasma", "setting": "5 µM", "measurement": "half-life", "result": "33.1 ± 7.6 min"}
{"SMILES": "N#C/C=C/CNCCCCN1c2ccccc2CCc2ccc(Cl)cc21.O=C(O)/C=C\\C(=O)O", "system": "human plasma", "setting": "5 µM", "measurement": "half-life", "result": "383 ± 64.4 min"}
{"note": "For quick reference, copied from above (series 1):"}
{"target or system": "HCC1599", "test": "refers to: CDK1 phospho-Thr14", "setting": "1.37 nM", "inhibition [%]": -8.2}
{"target or system": "PKMYT1", "test": "cell-free assay, inhibitor, TR-FRET", "setting": "0.1111 µM", "inhibition [%]": 98.8}
{"target or system": "HuCCT-1", "test": "refers to: CDK1 phospho-Thr14", "setting": "0.46 nM", "inhibition [%]": 16.5}
{"target or system": "PKMYT1", "test": "cell-free assay, inhibitor, TR-FRET", "setting": "460 pM", "inhibition [%]": 8.42}
{"target or system": "MDA-MB-157", "test": "refers to: CDK1 phospho-Thr14", "setting": "333.33 nM", "inhibition [%]": 57.2}
{"target or system": "PKMYT1", "test": "cell-free assay, inhibitor, TR-FRET", "setting": "1 µM", "inhibition [%]": 100}
